Results pooled from the literature.
Every numbered part comes from another study and shows a few of its results, in no order.
UniProt O75582, sequence (whole entry, looked up): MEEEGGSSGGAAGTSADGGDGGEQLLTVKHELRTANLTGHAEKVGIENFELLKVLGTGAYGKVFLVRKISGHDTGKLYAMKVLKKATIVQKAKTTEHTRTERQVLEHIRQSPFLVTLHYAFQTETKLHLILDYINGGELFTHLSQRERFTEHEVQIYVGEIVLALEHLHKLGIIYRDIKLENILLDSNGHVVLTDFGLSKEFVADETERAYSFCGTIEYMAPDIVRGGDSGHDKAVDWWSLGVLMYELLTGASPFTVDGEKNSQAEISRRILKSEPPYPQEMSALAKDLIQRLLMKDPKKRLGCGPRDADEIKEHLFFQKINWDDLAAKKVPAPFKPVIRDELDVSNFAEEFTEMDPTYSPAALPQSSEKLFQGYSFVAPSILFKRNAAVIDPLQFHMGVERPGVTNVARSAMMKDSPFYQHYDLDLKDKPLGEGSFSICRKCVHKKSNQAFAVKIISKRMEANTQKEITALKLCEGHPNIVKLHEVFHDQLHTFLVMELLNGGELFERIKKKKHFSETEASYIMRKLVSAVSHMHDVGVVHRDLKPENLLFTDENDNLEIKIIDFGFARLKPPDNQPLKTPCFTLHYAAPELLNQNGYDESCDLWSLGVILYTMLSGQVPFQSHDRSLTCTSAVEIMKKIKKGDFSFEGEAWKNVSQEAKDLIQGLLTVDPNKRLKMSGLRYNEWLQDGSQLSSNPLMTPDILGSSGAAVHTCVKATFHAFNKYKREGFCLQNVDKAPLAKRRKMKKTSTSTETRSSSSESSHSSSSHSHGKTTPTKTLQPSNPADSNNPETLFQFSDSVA
UniProt Q8NI60, sequence (whole entry, looked up): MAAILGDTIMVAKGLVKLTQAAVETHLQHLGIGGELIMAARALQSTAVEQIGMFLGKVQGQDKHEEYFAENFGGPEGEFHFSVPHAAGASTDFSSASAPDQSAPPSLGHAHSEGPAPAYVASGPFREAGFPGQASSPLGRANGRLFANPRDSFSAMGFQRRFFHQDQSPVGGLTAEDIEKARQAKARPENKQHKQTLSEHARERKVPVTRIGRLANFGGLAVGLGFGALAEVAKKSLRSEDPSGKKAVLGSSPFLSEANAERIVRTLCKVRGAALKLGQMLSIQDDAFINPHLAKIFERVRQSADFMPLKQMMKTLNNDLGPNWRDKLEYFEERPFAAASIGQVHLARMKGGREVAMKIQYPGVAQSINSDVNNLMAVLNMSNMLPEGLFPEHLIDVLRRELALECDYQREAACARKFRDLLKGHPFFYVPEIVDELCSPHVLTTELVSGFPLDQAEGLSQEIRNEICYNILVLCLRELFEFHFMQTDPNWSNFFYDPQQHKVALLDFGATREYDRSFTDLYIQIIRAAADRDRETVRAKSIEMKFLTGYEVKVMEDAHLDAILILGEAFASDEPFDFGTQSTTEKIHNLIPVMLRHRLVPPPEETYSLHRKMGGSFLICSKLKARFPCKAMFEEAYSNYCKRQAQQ
UniProt Q14164, sequence (whole entry, looked up): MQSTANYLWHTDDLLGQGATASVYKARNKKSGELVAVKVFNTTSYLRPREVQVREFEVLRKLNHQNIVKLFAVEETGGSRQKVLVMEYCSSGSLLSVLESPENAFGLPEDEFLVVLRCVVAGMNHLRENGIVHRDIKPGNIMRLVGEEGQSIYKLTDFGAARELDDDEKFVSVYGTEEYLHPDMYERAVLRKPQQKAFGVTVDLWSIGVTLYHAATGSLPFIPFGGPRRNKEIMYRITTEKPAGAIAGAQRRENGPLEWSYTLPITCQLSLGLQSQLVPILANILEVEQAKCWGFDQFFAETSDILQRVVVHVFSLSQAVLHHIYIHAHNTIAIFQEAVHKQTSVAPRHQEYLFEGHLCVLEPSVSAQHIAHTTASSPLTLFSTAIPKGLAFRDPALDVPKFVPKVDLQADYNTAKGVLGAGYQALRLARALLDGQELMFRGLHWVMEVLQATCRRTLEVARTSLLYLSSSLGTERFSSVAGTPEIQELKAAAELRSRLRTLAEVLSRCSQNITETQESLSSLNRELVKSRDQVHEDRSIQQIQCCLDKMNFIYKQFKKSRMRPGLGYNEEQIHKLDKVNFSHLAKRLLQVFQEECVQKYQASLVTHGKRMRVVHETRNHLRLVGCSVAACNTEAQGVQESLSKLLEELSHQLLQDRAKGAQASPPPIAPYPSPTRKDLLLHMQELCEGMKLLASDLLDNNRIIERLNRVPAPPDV
UniProt P09619, sequence (whole entry, looked up): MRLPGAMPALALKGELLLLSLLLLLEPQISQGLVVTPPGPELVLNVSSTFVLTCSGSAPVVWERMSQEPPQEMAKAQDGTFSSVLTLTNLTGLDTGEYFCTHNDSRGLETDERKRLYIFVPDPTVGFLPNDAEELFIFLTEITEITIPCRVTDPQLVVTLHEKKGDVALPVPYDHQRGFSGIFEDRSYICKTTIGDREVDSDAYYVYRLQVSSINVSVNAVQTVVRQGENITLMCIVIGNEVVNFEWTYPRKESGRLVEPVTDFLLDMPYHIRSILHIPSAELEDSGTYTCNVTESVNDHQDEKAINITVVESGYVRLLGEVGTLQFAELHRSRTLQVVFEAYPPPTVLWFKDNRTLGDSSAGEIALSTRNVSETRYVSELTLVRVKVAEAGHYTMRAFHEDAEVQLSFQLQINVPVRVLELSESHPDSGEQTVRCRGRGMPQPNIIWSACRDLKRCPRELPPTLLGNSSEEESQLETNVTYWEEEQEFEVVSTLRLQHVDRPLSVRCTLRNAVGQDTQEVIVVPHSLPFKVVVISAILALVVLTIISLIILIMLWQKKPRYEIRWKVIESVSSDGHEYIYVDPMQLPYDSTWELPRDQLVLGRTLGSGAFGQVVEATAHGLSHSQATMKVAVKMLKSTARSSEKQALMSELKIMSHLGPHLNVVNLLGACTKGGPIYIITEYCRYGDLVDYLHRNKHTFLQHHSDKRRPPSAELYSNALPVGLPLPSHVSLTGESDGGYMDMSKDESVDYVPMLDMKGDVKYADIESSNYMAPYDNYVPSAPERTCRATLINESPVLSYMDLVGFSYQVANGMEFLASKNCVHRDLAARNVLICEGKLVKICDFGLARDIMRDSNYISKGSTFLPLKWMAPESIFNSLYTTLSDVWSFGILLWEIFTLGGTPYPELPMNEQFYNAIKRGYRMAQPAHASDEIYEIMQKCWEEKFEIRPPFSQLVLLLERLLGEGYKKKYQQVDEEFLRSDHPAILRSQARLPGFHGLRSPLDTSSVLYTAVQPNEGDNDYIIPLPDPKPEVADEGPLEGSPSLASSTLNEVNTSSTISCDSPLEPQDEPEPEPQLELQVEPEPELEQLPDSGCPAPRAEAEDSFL
UniProt Q96PF2, sequence (whole entry, looked up): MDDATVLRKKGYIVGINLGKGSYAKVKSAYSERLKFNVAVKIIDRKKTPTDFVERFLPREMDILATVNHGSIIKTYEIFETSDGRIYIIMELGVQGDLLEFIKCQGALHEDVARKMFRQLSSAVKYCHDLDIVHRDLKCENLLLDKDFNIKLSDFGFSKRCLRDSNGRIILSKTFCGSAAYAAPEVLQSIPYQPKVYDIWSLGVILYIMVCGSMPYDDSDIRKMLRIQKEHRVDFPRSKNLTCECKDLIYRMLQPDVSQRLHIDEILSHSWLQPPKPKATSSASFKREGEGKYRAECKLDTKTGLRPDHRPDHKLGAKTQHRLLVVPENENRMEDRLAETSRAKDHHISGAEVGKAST
UniProt O94768, sequence (whole entry, looked up): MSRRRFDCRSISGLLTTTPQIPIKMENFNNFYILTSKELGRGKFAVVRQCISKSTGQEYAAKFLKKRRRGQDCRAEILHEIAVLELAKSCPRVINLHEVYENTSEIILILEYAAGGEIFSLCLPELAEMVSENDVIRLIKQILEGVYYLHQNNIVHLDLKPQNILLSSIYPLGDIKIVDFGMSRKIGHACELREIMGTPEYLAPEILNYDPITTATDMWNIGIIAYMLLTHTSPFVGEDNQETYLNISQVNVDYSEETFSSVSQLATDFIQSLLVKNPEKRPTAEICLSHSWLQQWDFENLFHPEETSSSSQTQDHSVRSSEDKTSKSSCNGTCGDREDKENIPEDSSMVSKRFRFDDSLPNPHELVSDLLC
UniProt P22612, sequence (whole entry, looked up): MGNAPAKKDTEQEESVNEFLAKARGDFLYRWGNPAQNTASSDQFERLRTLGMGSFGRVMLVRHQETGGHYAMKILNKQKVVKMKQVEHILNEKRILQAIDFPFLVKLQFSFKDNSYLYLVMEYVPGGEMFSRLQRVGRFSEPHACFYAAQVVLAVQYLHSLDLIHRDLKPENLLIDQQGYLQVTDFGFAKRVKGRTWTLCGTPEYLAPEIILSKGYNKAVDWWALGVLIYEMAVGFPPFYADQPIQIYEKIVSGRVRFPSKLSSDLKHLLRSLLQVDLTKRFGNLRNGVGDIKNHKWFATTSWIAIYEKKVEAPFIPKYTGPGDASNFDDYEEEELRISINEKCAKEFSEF
UniProt O43781, sequence (whole entry, looked up): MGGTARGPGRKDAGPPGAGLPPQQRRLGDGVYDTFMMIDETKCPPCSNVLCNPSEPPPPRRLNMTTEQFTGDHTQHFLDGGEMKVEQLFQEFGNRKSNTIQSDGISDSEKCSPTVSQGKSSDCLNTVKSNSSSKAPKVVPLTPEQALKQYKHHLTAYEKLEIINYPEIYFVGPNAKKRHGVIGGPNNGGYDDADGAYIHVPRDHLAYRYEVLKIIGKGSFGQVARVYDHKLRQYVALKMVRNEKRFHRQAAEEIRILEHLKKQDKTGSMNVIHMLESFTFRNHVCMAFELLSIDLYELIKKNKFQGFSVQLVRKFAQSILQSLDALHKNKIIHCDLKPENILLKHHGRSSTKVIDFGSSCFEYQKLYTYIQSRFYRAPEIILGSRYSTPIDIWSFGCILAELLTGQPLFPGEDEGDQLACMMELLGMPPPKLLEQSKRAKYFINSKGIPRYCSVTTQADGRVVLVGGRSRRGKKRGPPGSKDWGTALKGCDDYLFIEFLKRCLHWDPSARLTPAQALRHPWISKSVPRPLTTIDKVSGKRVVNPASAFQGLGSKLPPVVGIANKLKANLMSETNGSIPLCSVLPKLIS

Series 1
Structure (SMILES): Cn1cc(/C=C2\C(=O)Nc3ccc(S(N)(=O)=O)cc32)c2ccccc21
Effect on: enzyme activity
Action: inhibitor
Concentration: 0.5 µM
Baseline: control
target | remaining activity
Cyclin-dependent kinase 1, with cyclin B (CDK1, Homo sapiens, UniProt P06493) | 49.6%
Tyrosine-protein kinase receptor UFO (AXL, Homo sapiens, UniProt P30530) | 49.2%
Phosphorylase b kinase gamma catalytic chain, skeletal muscle/heart isoform (PHKG1, Homo sapiens, UniProt Q16816) | 20.6%
Serine/threonine-protein kinase 17A (STK17A, Homo sapiens, UniProt Q9UEE5) | 57.5%
Tyrosine-protein kinase Blk (BLK, Homo sapiens, UniProt P51451) | 42.9%
cAMP-dependent protein kinase catalytic subunit gamma (PRKACG, Homo sapiens, UniProt P22612) | 101%
Cyclin-dependent kinase 4, with cyclin D3 (CDK4, Homo sapiens, UniProt P11802) | 94%
Cyclin-dependent kinase 6, with cyclin D3 (CDK6, Homo sapiens, UniProt Q00534) | 81.4%
Dual specificity tyrosine-phosphorylation-regulated kinase 3 (DYRK3, Homo sapiens, UniProt O43781) | 89.7%
Ephrin type-B receptor 1 (EPHB1, Homo sapiens, UniProt P54762) | 68.7%
Tyrosine-protein kinase Srms (SRMS, Homo sapiens, UniProt Q9H3Y6) | 99.8%
Homeodomain-interacting protein kinase 2 (HIPK2, Homo sapiens, UniProt Q9H2X6) | 82.6%
Ephrin type-B receptor 4 (EPHB4, Homo sapiens, UniProt P54760) | 57.4%
MAP kinase-activated protein kinase 3 (MAPKAPK3, Homo sapiens, UniProt Q16644) | 91.5%
Calcium/calmodulin-dependent protein kinase type II subunit beta (CAMK2B, Homo sapiens, UniProt Q13554) | 86.5%
3-phosphoinositide-dependent protein kinase 1 (PDPK1, Homo sapiens, UniProt O15530) | 95%
Ribosomal protein S6 kinase alpha-5 (RPS6KA5, Homo sapiens, UniProt O75582) | 80.9%
Serine/threonine-protein kinase WNK3 (WNK3, Homo sapiens, UniProt Q9BYP7) | 99%
Testis-specific serine/threonine-protein kinase 2 (TSSK2, Homo sapiens, UniProt Q96PF2) | 84%
Serine/threonine-protein kinase 16 (STK16, Homo sapiens, UniProt O75716) | 78.7%
Ribosomal protein S6 kinase alpha-6 (RPS6KA6, Homo sapiens, UniProt Q9UK32) | 6.55%
Mitogen-activated protein kinase kinase kinase kinase 4 (MAP4K4, Homo sapiens, UniProt O95819) | 22.5%

Series 2
Compound: CCCCN(CCCC)C(=O)CN1C[C@@H](c2cc(OC)c3c(c2)OCO3)[C@H](C(=O)O)[C@H]1CC(C)(C)CCC
Concentration: 1 µM
target | test | remaining binding
Bone morphogenetic protein receptor type-1B (BMPR1B, Homo sapiens, UniProt O00238) | cell-free assay, competition with immobilised ligand | 100%
Inhibitor of nuclear factor kappa-B kinase subunit epsilon (IKBKE, Homo sapiens, UniProt Q14164) | cell-free assay, competition with immobilised ligand | 89.7%
ALK tyrosine kinase receptor (ALK, Homo sapiens, UniProt Q9UM73) | cell-free assay, competition with immobilised ligand | 100%
Atypical kinase COQ8A, mitochondrial (COQ8A, Homo sapiens, UniProt Q8NI60) | cell-free assay, competition with immobilised ligand | 99.4%
Epidermal growth factor receptor (EGFR, Homo sapiens, UniProt P00533, L858R) | cell-free assay, competition with immobilised ligand | 100%
Proto-oncogene tyrosine-protein kinase receptor Ret (RET, Homo sapiens, UniProt P07949, M918T) | cell-free assay, competition with immobilised ligand | 100%
Platelet-derived growth factor receptor beta (PDGFRB, Homo sapiens, UniProt P09619) | cell-free assay, competition with immobilised ligand | 99%
Interferon-induced, double-stranded RNA-activated protein kinase (EIF2AK2, Homo sapiens, UniProt P19525) | cell-free assay, competition with immobilised ligand | 100%
Serine/threonine-protein kinase SBK1 (SBK1, Homo sapiens, UniProt Q52WX2) | cell-free assay, competition with immobilised ligand | 90.6%
Tyrosine-protein kinase ABL1, phosphorylated (ABL1, Homo sapiens, UniProt P00519, F317I) | cell-free assay, competition with immobilised ligand | 94.3%
Cyclin-dependent kinase-like 3 (CDKL3, Homo sapiens, UniProt Q8IVW4) | cell-free assay, competition with immobilised ligand | 83.6%
Cyclin-dependent kinase 19 (CDK19, Homo sapiens, UniProt Q9BWU1) | competition binding | 99.6%
MAP kinase-activated protein kinase 5 (MAPKAPK5, Homo sapiens, UniProt Q8IW41) | cell-free assay, competition with immobilised ligand | 100%
Serine/threonine-protein kinase SIK1 (SIK1, Homo sapiens, UniProt P57059) | competition binding | 100%
Serine/threonine-protein kinase PRP4 homolog (PRPF4B, Homo sapiens, UniProt Q13523) | cell-free assay, competition with immobilised ligand | 99.3%
Myotonin-protein kinase (DMPK, Homo sapiens, UniProt Q09013) | cell-free assay, competition with immobilised ligand | 100%
Dual specificity mitogen-activated protein kinase kinase 7 (MAP2K7, Homo sapiens, UniProt O14733) | cell-free assay, competition with immobilised ligand | 88.6%
Serine/threonine-protein kinase 17B (STK17B, Homo sapiens, UniProt O94768) | cell-free assay, competition with immobilised ligand | 100%
Serine/threonine-protein kinase PAK 4 (PAK4, Homo sapiens, UniProt O96013) | cell-free assay, competition with immobilised ligand | 90.2%
Aurora kinase A (AURKA, Homo sapiens, UniProt O14965) | cell-free assay, competition with immobilised ligand | 90.2%
Ribosomal protein S6 kinase alpha-5, C-terminal kinase domain (RPS6KA5, Homo sapiens, UniProt O75582) | cell-free assay, competition with immobilised ligand | 98.5%
Megakaryocyte-associated tyrosine-protein kinase (MATK, Homo sapiens, UniProt P42679) | cell-free assay, competition with immobilised ligand | 100%
Mitogen-activated protein kinase 15 (MAPK15, Homo sapiens, UniProt Q8TD08) | cell-free assay, competition with immobilised ligand | 100%

Series 3
SMILES: CC(=O)N[C@@H](Cc1c[nH]c2ccccc12)C(=O)N[C@@H](CCC(=O)C=[N+]=[N-])C(=O)OC(C)C
Dose: dose not given
Baseline: vehicle
test | system | fold change
metabolomics, item: cytidine 2',3'-cyclic monophosphate | mouse, EL4 tumour | 4.12
item: 4-methyl-2-oxopentanoate | mouse, EL4 tumour-bearing, EL4 tumour | 2.73
item: mannose | mouse, EL4 tumour-bearing, EL4 tumour | 2.12
item: 1-methylguanidine | mouse, EL4 tumour-bearing, EL4 tumour | 6.06
item: UDP-galactose | mouse, EL4 tumour-bearing, EL4 tumour | 0.398
item: methylsuccinate | mouse, EL4 tumour-bearing, EL4 tumour | 5.99
item: reduced glutathione | mouse, EL4 tumour, tumour | 0.449
metabolomics, item: 2-hydroxy-4-(methylthio)butanoic acid | mouse, EL4 tumour | 0.395

Series 4
Medium: 1,9-decadiene/PBS
pH: 7.4
Compound | logD
CC(C)C[C@@H]1NC(=O)[C@H](C)NC(=O)[C@H](C)NC(=O)[C@H](C)NC(=O)[C@H](C(C)C)NC(=O)[C@H](CC(C)C)NC(=O)[C@@H](CC(C)C)NC1=O | -2.27
CC(C)C[C@@H]1NC(=O)[C@H](CC(C)C)NC(=O)[C@@H](C(C)C)NC(=O)[C@H](CC(C)C)NC(=O)[C@@H](Cc2cscn2)NC(=O)[C@H](C)NC(=O)[C@H](CCC(=O)N2CCCC2)NC1=O | -2.21
CC(C)C[C@@H]1NC(=O)[C@H](C)NC(=O)[C@H](CCC(=O)N2CCCC2)NC(=O)[C@H](CC(C)C)NC(=O)[C@@H](CCC(=O)N2CCCC2)NC(=O)[C@H](CC(C)C)NC(=O)[C@@H](CC(C)C)NC1=O | -1.94
CC(C)C[C@@H]1NC(=O)[C@H](CC(C)C)NC(=O)[C@@H](C(C)C)NC(=O)[C@H](C(C)C)NC(=O)[C@@H](Cc2cscn2)NC(=O)[C@H](C)NC(=O)[C@H](CCC(=O)N2CCCC2)NC1=O | -2.84
CC(C)C[C@@H]1NC(=O)[C@H](CC(C)C)NC(=O)[C@@H](C(C)C)NC(=O)[C@H](C)NC(=O)[C@H](C(C)C)NC(=O)[C@H](C)NC(=O)[C@H](C)NC1=O | -2.1
CC(C)C[C@@H]1NC(=O)[C@@H](C)NC(=O)[C@@H](CC(C)C)NC(=O)[C@@H](CC(C)C)NC(=O)[C@H](C(C)C)NC(=O)[C@H](CC(C)C)NC(=O)[C@@H](CC(C)C)NC1=O | 1.13
CC(C)C[C@@H]1NC(=O)[C@H](C(C)C)NC(=O)[C@H](Cc2cscn2)NC(=O)[C@@H](CC(C)C)NC(=O)[C@@H](CCC(=O)N2CCCC2)NC(=O)[C@H](CC(C)C)NC(=O)[C@@H](CC(C)C)NC1=O | -0.525
CC(C)C[C@@H]1NC(=O)[C@H](C)NC(=O)[C@@H](CCC(=O)N2CCCC2)NC(=O)[C@H](C)NC(=O)[C@H](C)NC(=O)[C@H](CC(C)C)NC(=O)[C@H](CC(C)C)NC1=O | -3.08
CC(C)C[C@@H]1NC(=O)[C@H](C)NC(=O)[C@H](C)NC(=O)[C@@H](CC(C)C)NC(=O)[C@H](C(C)C)NC(=O)[C@H](CC(C)C)NC(=O)[C@@H](CC(C)C)NC1=O | -0.54
CC(C)C[C@@H]1NC(=O)[C@H](CC(C)C)NC(=O)[C@H](CC(C)C)NC(=O)[C@H](CC(C)C)NC(=O)[C@H](C(C)C)NC(=O)[C@H](C)NC(=O)[C@H](C)NC1=O | -0.257

Repeated from above (series 4):
Compound | logD
CC(C)C[C@@H]1NC(=O)[C@@H](C)NC(=O)[C@@H](CC(C)C)NC(=O)[C@@H](CC(C)C)NC(=O)[C@H](C(C)C)NC(=O)[C@H](CC(C)C)NC(=O)[C@@H](CC(C)C)NC1=O | 1.13
CC(C)C[C@@H]1NC(=O)[C@H](CC(C)C)NC(=O)[C@@H](C(C)C)NC(=O)[C@H](CC(C)C)NC(=O)[C@@H](Cc2cscn2)NC(=O)[C@H](C)NC(=O)[C@H](CCC(=O)N2CCCC2)NC1=O | -2.21
CC(C)C[C@@H]1NC(=O)[C@H](CC(C)C)NC(=O)[C@H](CC(C)C)NC(=O)[C@H](CC(C)C)NC(=O)[C@H](C(C)C)NC(=O)[C@H](C)NC(=O)[C@H](C)NC1=O | -0.257
CC(C)C[C@@H]1NC(=O)[C@H](C)NC(=O)[C@H](C)NC(=O)[C@H](C)NC(=O)[C@H](C(C)C)NC(=O)[C@H](CC(C)C)NC(=O)[C@@H](CC(C)C)NC1=O | -2.27
CC(C)C[C@@H]1NC(=O)[C@H](CC(C)C)NC(=O)[C@@H](C(C)C)NC(=O)[C@H](C)NC(=O)[C@H](C(C)C)NC(=O)[C@H](C)NC(=O)[C@H](C)NC1=O | -2.1
